Published values from different studies.
Each numbered part is a random draw from the data of one study; scales do not carry over between parts.

Block 1
Organism: Sarcocystis neurona
Read-out: parasite growth
Concentration: 10 µM
Time: 96 h
Setting: first screen
Reference: untreated
`NC(=O)OCCCc1ccccc1` — result for “log2 fold change”: 0.37.
`CCCCCCNC(=O)n1cc(F)c(=O)[nH]c1=O`: “log2 fold change” -3.66.
Under “log2 fold change”, `O=C1Nc2ccc(Cl)cc2C(c2ccccc2Cl)=NC1O` (stereo not drawn) is recorded as 0.51.

Block 2
Compound: Cc1ccc(O)cc1Nc1ccnc2cc(-c3ccccn3)ccc12
Cell line: L929
Read-out: necroptosis protection
Method: CCK-8
Together with: TNF-α-induced
For 0.313 µM: viability read 34.5%.
The viability was 55.3% (10 µM).
It gave 50.4% for viability (1.667 µM).
It gave 31.4% for viability (0.078 µM).

Single results of other studies
`[N-]=[N+]=CC(=O)CC[C@H](N)C(=O)O` gave an FGAR level of 709 nmol/g (mouse, EL4 tumour-bearing, EL4 tumour; subcutaneous, dose not given).
For `Cc1sc2c(c1C)C(c1ccc(Cl)cc1)=N[C@@H](CC(=O)OC(C)(C)C)c1nnc(C)n1-2`, the nuclei count was -1.99 z-score (mouse MPNST tumor cells; high-content nuclear imaging, refers to: cell number; 10 µM, 12 h, mean of 2 replicates; reference: plate mean, higher = more cells).

For quick reference, copied from above (block 2):
It gave 31.4% for viability (0.078 µM).
